# Assay results from different studies.
# Compare with care: the assays were run in different laboratories. Several values in a cell are separate wells, animals, samples, runs or records. ± gives the spread as reported.
Compound,cell line,assay,setting,scale,quantity,value
COc1ccc2c(c1)OC1=C(C(=O)CCC1)C2c1c[nH]c2ccccc12 (stereo not shown),mouse preadipocytes,"qPCR, measured: HSL","IC20, 14 days, adipogenic induction",baseline: untreated cells,mRNA level,decreased
CC(=O)Oc1ccccc1C(=O)[Se]CC(=O)Nc1cccc(C(F)(F)F)c1,NCI60 renal subpanel,cell growth,"10 µM, 48 h, one-dose",,mean growth percent,-57.4%
N=C(S)N/N=C/c1ncc(C(F)(F)F)cc1Cl,LDR,"silenced CMV-GFP reporter derepression, qHTS",,,EC50,3980 nM
CN1CCCNC(=O)c2cccc(c2)C(=O)NCCCN(C)CCCNc2cccc3c2C(=O)c2cccc(c2C3=O)NCCC1,SAS,"RNA-Seq, measured: GADD45B mRNA","5 µM, 24 h",baseline: untreated cells,log2 fold change,0.711
CC(C)c1ccc(N(C)c2ccc3c(c2)OCC[C@H]3CNc2cnccc2C(=O)O)cc1,TE4,"cell viability, CellTiter-Glo",7 days,,IC50,12.7 nM
CCCC(=O)N1CCN(c2ccc(NC(=O)c3ccc([N+](=O)[O-])o3)cc2Cl)CC1,LDR,"silenced CMV-GFP reporter derepression, qHTS",,,EC50,2510 nM
C=C(NC(=O)c1csc(-c2cccnc2)n1)C(=O)NC(=C)C(=O)OC,PC3-TxR,cell growth or viability,,,EC50,24200 nM
Cc1ccc(-n2cc(CSc3nc4ccccc4n3Cc3cn(-c4ccc(C)cc4)nn3)nn2)cc1,MDA-MB-231,MTT,500 ppm,,viability,6.56%
O=C(C[Se]C(=O)c1cccnc1Nc1cccc(C(F)(F)F)c1)Nc1cccc(C(F)(F)F)c1,NCI60 renal subpanel,cell growth,"10 µM, 48 h, one-dose",,mean growth percent,-83.5%
O=C(NCc1ccc(OC(F)(F)F)cc1)[C@H]1CCCN(c2ncnc3[nH]c(-c4ccncc4)cc23)C1,NCI-H2228,"cell growth or viability, MTT","0.2 µg/mL, 72 h",,inhibition,60.3%
CCC(=CCc1c(O)cc2c(c1O)C(=O)CC(c1ccc(O)cc1)O2)CC (stereo not shown),HeLa,"cell growth or viability, MTT","6.25 µM, 48 h",,inhibition,29.8%
CO[C@@H]1[C@@H](OC(N)=O)[C@@H](O)[C@H](Oc2ccc3c(O)c(NC(=O)c4ccc(O)c(CC=C(C)C)c4)c(=O)oc3c2C)OC1(C)C,DLD-1 BRCA2-/-,,"150 µM, replicate B",baseline: untreated,colony survival,0.312%
COc1nc(Nc2nc(O)c3ccccc3n2)nc2ccc(C)cc12,LDR,"silenced CMV-GFP reporter derepression, qHTS",,,Emax,44%
Cc1cc(NC2CCN(C)CC2)ccc1-c1cc2c(N3CCC[C@H](C(=O)Nc4cccc(Cl)c4)C3)ncnc2[nH]1,NCI-H2228,"cell growth or viability, MTT","1 µg/mL, 72 h",,inhibition,75.8%
O=C(C[Se]C(=O)c1ccccc1Nc1cccc(C(F)(F)F)c1)Nc1cccc(C(F)(F)F)c1,NCI60 NSCLC subpanel,NCI60 five-dose screen,,,GI50,1710 nM
COC(=O)c1cc(NC2=NC(=O)C(=Cc3ccc(C)cc3)S2)ccc1OC(C)=O,MCF7,"GC-MS, measured: Scyllo-Inositol",1 µM,baseline: DMSO,metabolite level,0.03 fold change
CNS(=O)(=O)Nc1nccc(Cc2c(C)c3ccc(Oc4ncccc4F)cc3oc2=O)c1F,NCI-H2286,cell viability,7 days,,IC50,> 1000 nM
COc1ccc(-c2cc3c(N4CCC[C@H](C(=O)NCc5ccc(OC(F)(F)F)cc5)C4)ncnc3[nH]2)cn1,NCI-H2228,"cell growth or viability, MTT","5 µg/mL, 72 h",,inhibition,77.9%
O=C(C[Se]C(=O)c1ccc2ccccc2c1)Nc1cccc(C(F)(F)F)c1,NCI60 renal subpanel,"total growth inhibition, inhibitor",five-dose,,mean TGI,3570 nM
CC(C)(O)c1ccn2c(-c3ccc(F)c(-c4ccc(F)cc4C#N)c3)cnc2c1F,HEK-293T stably expressing GABAA receptors,"Western blot, measured: VCP, SEL1L, Hrd1, Grp94","5 µM, 24 h, ERAD factors, together with: hispidulin 10 µM",,protein level,no effect
CCNc1cc2c(cc1C)C1(c3cc(C)c(NCC)cc3O2)c2ccccc2C(=O)N1N=Cc1c[c-]c(-c2ccccn2)cc1.Cc1c(C)c(-c2ccc(-c3ccccc3)cc2)[c-](C)c1C.[Cl-].[Ir+3],A549,annexin V-FITC/PI flow cytometry,"0.5 x IC50, 24 h",,early apoptotic cells,2.46 ± 0.12%
Cn1cc(-c2cc3c(N4CCC[C@H](C(=O)NCc5ccc(OC(F)(F)F)cc5)C4)ncnc3[nH]2)cn1,NCI-H2228,"cell growth or viability, MTT","0.008 µg/mL, 72 h",,inhibition,29.3%
O=C(CCCCCOc1ccc2ccccc2c1)N[C@@H](CO)C[C@@H](O)c1ccc(-c2ccccc2)cc1,HeLa,"HPLC-MS-MS lipidomics, measured: C18 SM and ceramide","1 µM, 24 h",baseline: SM over Cer,SM/Cer ratio,"26 ,1"
Cc1nn(C)cc1-c1cc2c(N3CCC[C@H](C(=O)NCc4ccc(OC(F)(F)F)cc4)C3)ncnc2[nH]1,NCI-H2228,"cell growth or viability, MTT","1 µg/mL, 72 h",,inhibition,74.8%
COc1ccc2c(C)nc(Nc3nc(O)cc(-c4ccccc4)n3)nc2c1,LDR,"silenced CMV-GFP reporter derepression, qHTS",,,efficacy,76%
Cc1sc2c(c1C)C(c1ccc(Cl)cc1)=N[C@@H](CC(=O)NCC(=O)N1CCC3(CCC(C(=O)N4CCN(C(=O)c5cc(Cc6n[nH]c(=O)c7ccccc67)ccc5F)CC4)CC3)CC1)c1nnc(C)n1-2,NCI-H82,,"100 nM, 24 h",,cells in G2 phase,11%
COc1ccccc1-c1ccncc1C(=O)Nc1nnc(OCc2ccc(Cl)cc2)s1,PEO1 (BRCA2-mutant ovarian cancer),,"1.00 µM, together with: olaparib 0 µM",,colony survival,44.1% and 54.8%
CCN(C(=O)c1cc(F)ccc1Oc1nncnc1N1CCC2(C1)CN([C@H](CCCN(C)CCOC)C(C)C)C2)C(C)C,786-O,cell growth,168 h,,GI50,> 10000 nM
Cc1cc(NC2CCN(C)CC2)ccc1-c1cc2c(N3CCC[C@H](C(=O)N[C@@H](C)c4ccccc4)C3)ncnc2[nH]1,NCI-H2228,"cell growth or viability, MTT","0.008 µg/mL, 72 h",,inhibition,12%
COC(=O)c1cc(NC2=NC(=O)C(=Cc3ccc(N(C)C)cc3)S2)ccc1OC(C)=O,MCF7,"GC-MS, measured: Phosphoric acid",1 µM,baseline: DMSO,metabolite level,0.1 fold change
Cc1ncsc1-c1ccc(C(C)NC(=O)C2CC(O)CN2C(=O)C(NC(=O)CCCCCCCCCCN2CCCC(Nc3ncc(Cl)c(Nc4ccccc4S(=O)(=O)C(C)C)n3)C2)C(C)(C)C)cc1 (stereo not shown),22Rv1,"RNA-seq, measured: SLC45A4 mRNA",concentration not given,baseline: DMSO,log2 fold change,-1.73
COc1c(C)c(OS(=O)(=O)c2ccccc2)c(C)c(O)c1C(=O)/C=C/c1ccccc1,KKU-M213,SRB,,baseline: normal over KKU-M213 IC50,selectivity index,1.22
CCC(=O)N1CCN(c2ccc(NC(=O)c3ccc([N+](=O)[O-])o3)cc2Cl)CC1,LDR,"silenced CMV-GFP reporter derepression, qHTS",,,Emax,50%
COc1ccc(NC(=O)C2CCCN(c3ncnc4[nH]c(-c5ccc(NC6CCN(C)CC6)cc5C)cc34)C2)cc1 (stereo not shown),NCI-H2228,"cell growth or viability, MTT","0.0003 µg/mL, 72 h",,inhibition,44.7%
Cn1ncc2cc(-c3cncc(Cl)c3N3CCC4(CCNC4=O)CC3)ccc21,LS174T,"microarray, measured: MT1E","concentration not given, 4 h, gene set Metallothionein-1E",baseline: untreated cells,fold change in expression,-2.15
Cc1c(Cl)cccc1Nc1ccccc1C(=O)[Se]CC(=O)Nc1cccc(C(F)(F)F)c1,NCI60 NSCLC subpanel,NCI60 five-dose screen,,,GI50,1610 nM
C=CC(=O)N1[C@H](c2ccc3c(c2)OCO3)c2[nH]c3ccccc3c2C[C@@H]1C(=O)NC,rat DRG neurons,,"0.004572 µM, 48 h, together with: vincristine 40 nM",,mean neuron degeneration,81.1%
CCN(CC)CC(=O)Nc1cccc(-n2cc(-c3ccc4ccc(-c5cn(-c6cccc(NC(=O)CN(CC)CC)c6)nn5)cc4c3)nn2)c1,RCC4,"PCR angiogenesis array, measured: PLG","5 x IC50, 4 h, normoxia",baseline: untreated,fold regulation,-1.07
Cc1n[nH]c(C)c1-c1cc2c(N3CCC[C@H](C(=O)NCc4ccc(OC(F)(F)F)cc4)C3)ncnc2[nH]1,NCI-H2228,"cell growth or viability, MTT","0.2 µg/mL, 72 h",,inhibition,71.6%
COc1ccc(NC(=O)c2ccc3[nH]c(-c4ccc(N(C)C)cc4)nc3c2)cn1,HCT116,IncuCyte,"concentration not given, 6 h",,dead cell to confluence ratio,9.46 and 3.16 and 12.2
